Experimental data of several laboratories.
Parts stem from different laboratories: compare values within a part only. Positions count from the first letter of the parent shown.

Study 1
Target: Centromere-binding protein 1, full length, His-tagged (CBF1, Saccharomyces cerevisiae, UniProt P17106, residues 1-351)
UniProt P17106, sequence (whole entry, looked up): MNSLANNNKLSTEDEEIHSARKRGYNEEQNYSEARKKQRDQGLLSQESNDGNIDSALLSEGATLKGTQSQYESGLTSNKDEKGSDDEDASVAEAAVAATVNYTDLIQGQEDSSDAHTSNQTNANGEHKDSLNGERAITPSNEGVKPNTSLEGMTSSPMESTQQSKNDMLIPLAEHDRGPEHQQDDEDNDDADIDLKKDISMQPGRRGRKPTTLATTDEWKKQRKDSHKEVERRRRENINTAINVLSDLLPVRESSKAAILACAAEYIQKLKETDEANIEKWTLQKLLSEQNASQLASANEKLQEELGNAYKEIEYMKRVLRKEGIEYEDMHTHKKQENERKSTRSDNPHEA
Method: competition protein-binding microarray
Form: double-stranded DNA, one strand shown
Sample: in vitro
Tested at: 2 µM
Setting: whole 60-bp probe, lowest competitor level
Together with: Pho4 competitor, 0.05 µM
Direction: higher = stronger binding
Oligonucleotide	fluorescence intensity [a.u.]
TATCACCCTTTAGGAGCCGTGATGGAGAAGACTACCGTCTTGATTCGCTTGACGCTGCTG	76.3
ACTACAGACAAAAAACCCGTGGCCGACCGAACCGAAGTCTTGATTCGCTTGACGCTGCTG	73.6
ATGGGCCGATAGTACCACCTGATCTTGAGTTGTTTTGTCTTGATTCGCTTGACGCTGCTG	242
TGTTGCATACGTAAACATGTGTAGATTATTCTAAATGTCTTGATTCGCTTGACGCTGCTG	130
CAATTTGAAGTCCGTCACGGGAGGCAGTTGTTTGGTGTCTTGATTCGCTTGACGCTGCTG	208
CGTCCTAGTGATTGCGAAGTGGGTGCCATGAGGAAGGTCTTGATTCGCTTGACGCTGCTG	81
CTTCTGTAAATTTGTCACGGGACTTGACGCGCCCCGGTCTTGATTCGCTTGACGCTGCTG	1060
TATGTTTGCTACTGTCACACTGCCTTTCAATACGCTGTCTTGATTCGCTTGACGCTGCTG	77.2
CTTCTGTAAATTTTTCACGTGTGATGACGCGCCCCGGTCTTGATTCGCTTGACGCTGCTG	585
AAAGCGGTAATTTGTCACTTGACTTCACATATCTATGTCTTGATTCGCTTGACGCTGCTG	211
AATTGGAGAACACATTTCGTGGGTATTTCGACCCAAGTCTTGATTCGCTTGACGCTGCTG	67
CGACTTGGTAGAAAGCACGATCTTCAGTGGAGTTGAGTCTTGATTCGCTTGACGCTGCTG	77.5
TACGGCCCAACTCCGCACGCTGCCAAGGAGAGCATTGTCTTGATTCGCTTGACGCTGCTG	60.6
AAATTACTAAGTTGAAGAGTGGGTGACGCCGTATGAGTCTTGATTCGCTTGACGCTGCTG	67.2
TCACCCTCTCCGACTCACGTGGACCTTGGCGCGGCCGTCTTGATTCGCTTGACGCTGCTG	846
TTATGTACAACAGCCCTCGTGCTTTCACCGTTGTAGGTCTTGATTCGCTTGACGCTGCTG	138
AAAGCGGTAATTTGCATCGTGGGTGCAGATATCTATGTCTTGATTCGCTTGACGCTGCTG	63.7

Study 2
Target: CCNA1, cyclin fold, Cln2 fusion (human)
Method: yeast growth competition, sequencing
Sample: yeast
Setting: weak parent motif
Baseline: not given
Direction: higher = stronger binding
Parent: BRCA2 docking peptide (human); PSIKRNLLNEFDR; partner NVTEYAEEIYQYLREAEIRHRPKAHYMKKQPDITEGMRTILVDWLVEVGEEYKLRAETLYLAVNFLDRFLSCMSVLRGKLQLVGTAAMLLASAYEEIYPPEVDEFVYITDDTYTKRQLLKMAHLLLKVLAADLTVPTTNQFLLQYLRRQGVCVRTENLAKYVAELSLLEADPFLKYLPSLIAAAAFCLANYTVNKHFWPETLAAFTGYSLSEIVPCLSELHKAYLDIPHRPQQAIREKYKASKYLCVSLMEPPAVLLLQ
Variant	normalised enrichment score
PSITRNLLNEFDR [K4T]	0.136
PSIKRNLCNEFDR [L8C]	0.316
PSIKRNLLNEFQR [D12Q]	0.97
PSIFRNLLNEFDR [K4F]	0.153
PSSKRNLLNEFDR [I3S]	0.535
PSIKRNLLNEFDV [R13V]	0.381
PSIKTNLLNEFDR [R5T]	0.0478
PSIKRNLLNEFFR [D12F]	0.711
PSIKRNLLNEFHR [D12H]	0.198
PSIKRNLLNEGDR [F11G]	0.567
PSIKRNCLNEFDR [L7C]	0.273
PSIKRNLLNEDDR [F11D]	0.339
PSIKWNLLNEFDR [R5W]	0.0658
PSIKRNLLNQFDR [E10Q]	0.307
PSIKRNLLNHFDR [E10H]	0.201
PSIGRNLLNEFDR [K4G]	-0.0973
PSNKRNLLNEFDR [I3N]	0.212
PPIKRNLLNEFDR [S2P]	0.189
PSIKRNQLNEFDR [L7Q]	0.503
PSIKRNLLVEFDR [N9V]	0.242
PSIKRNLLNEFDH [R13H]	0.338
PSIKRNLLNEFMR [D12M]	0.684
PSIKRNLLNMFDR [E10M]	0.0576
PSIQRNLLNEFDR [K4Q]	-0.091
PSIERNLLNEFDR [K4E]	0.13

Study 3
Target: RNA binding protein fox-1 homolog 2, RRM domain, GST-SBP tag (RBFOX2, Homo sapiens, UniProt O43251-10, residues 100-194)
Method: RNA Bind-n-Seq
Form: RNA
Sample: in vitro
Tested at: 365 nM
Setting: natural RNA segment, single round, ends assumed
Baseline: no-protein control
Direction: higher = stronger binding
Construct (chain): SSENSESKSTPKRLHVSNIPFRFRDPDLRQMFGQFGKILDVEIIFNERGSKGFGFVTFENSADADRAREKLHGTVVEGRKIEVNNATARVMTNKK
Oligonucleotide	RBNS enrichment (R)
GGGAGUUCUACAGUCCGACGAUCGUGCUUGCCUUCUCUCCAAGGCCAUGGCAUGAGUUCACAGAAUAUAUAUUUUCGGCAGAUUGAGCUUUAGAGAUGCAACGACUUUUCCCUCUGUGCCUGUAGGAAUGCUCUGGAAUUCUCGGGUGCCAA	0.601
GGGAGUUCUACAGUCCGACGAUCGCAUAAGGGCUUUCAAAAAUUAAGUCUGUCCAGUAGAGUGAUUUUGCUUUCAUUAUUACCAAGUCAAGAGUACAACAGAGCUAGUGAACCGUAGCAGCAUGCGAAGCAGGUGGAAUUCUCGGGUGCCAA	4.08
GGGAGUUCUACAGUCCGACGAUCGGGCUCCAAGCUGCUUGAGGGGGUCAACCUUGGACCAAAGUUGCCUUAAGCCCCAAGUAUAAAAGAGCUUAGGGGAAGGUGUAAGGGCCACAGGCUGGAAGCUGACAGCCUGGAAUUCUCGGGUGCCAA	0.368
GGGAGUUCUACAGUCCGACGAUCCUUGAAAUUGGGGUUUGCUUUAGAGCACAAACAUAAGUCUGUGUUAGGUGGACUUAAAUCCCAACAGGGUCACUUGAUAAUUAUAGCCAUAGAAAUGCAGAUGCAGGUAAUGGAAUUCUCGGGUGCCAA	0.393
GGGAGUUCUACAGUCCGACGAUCGCUUUUAUCCUGCAUGGGAUAACAUCUUUGUAAAUGUAUAAGCUUGGAAACCACCCAACAAAUAUUAGUAGCUGGAUAGCUACCUAUUUGUUGUUGAAUCCGGGUAUCCAUGGAAUUCUCGGGUGCCAA	0.434
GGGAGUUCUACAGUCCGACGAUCAGAACCUGGGCCUGGGGCCGGGACUCUGCAUGACUGGGAGCAAGUCACUUAAACCUCCUGUGCCUCGAUUUCCCCCUUCUACAAAGUGGGGCCAAUGAUUCUUGUGUGUCUGGAAUUCUCGGGUGCCAA	2.16
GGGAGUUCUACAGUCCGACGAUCCACUCUUACAGGCACUUUAUAUUUCUUGCUGUAACUACAGCAAUCACAUACAGUACAGACAACCUCAAAAAUCUGUUUAUAUUAGUGUAAAUAGAAAAAUGGUAGACCGCUGGAAUUCUCGGGUGCCAA	0.286
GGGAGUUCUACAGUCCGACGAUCUCAUGAAUGUGCUGGUGAACACUGUGACCAGGCUUUUGUAGAUGGCGAUGUGUUAUAGACGGUGCUCACUCCCAAGGGACAGCAAGUGAGCAGAGAUGUACUGCAAAGUCUGGAAUUCUCGGGUGCCAA	2.81
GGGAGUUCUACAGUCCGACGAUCCUUUUGGGGGUUAUUCUACCAACAAACAGUCCAUUGGAAAGAAAACAGUCCCUGGAAUUAACAGAUCAGAAUGUUCACACUGGUUAAUCUUUUUUUAACAAUGAGCAUGAUGGAAUUCUCGGGUGCCAA	0.398
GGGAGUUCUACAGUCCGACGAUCCACCCCUUUCCUUCCCUACCCAGCCAGGCUGGGCUGCCUCCUGCCCCCCUCGCUAGCCAUUUGGGGGUGGCAAGGGGGUGUGGUUGUUUCUCGUGGUUGUGUGUGUUUGUUGGAAUUCUCGGGUGCCAA	0.605
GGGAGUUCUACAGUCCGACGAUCGGGUUUUCAGAGUGAUUUUCAGGUUUAAUUUCACUGCCUUUCAUAAGGGUAAAGUUUCACAGCUGACAUUAGCCUGAGGAUUAGCACUAAAGAGCUGUGUUUUCAUAGCAUGGAAUUCUCGGGUGCCAA	0.598
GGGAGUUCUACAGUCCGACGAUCCUGCAUCUUGAUCCUCCUGUACGCCAUGUACAAGUACAGGAACAGGGACGAGGGGUCCUAUCAAGUGGACGAGACGCGGAACUACAUCAGCAACUCCGCCCAGAGCAACGUGGAAUUCUCGGGUGCCAA	0.578

Study 4
Target: Hepatocyte nuclear factor 3-beta, forkhead domain (FOXA2, Homo sapiens, UniProt Q9Y261, residues 142-269)
Method: protein-binding microarray
Form: double-stranded DNA, one strand shown
Sample: in vitro
Tested at: not given
Setting: k-mer, scored over probes, only values ≥0.25
Direction: higher = stronger binding
Construct (chain): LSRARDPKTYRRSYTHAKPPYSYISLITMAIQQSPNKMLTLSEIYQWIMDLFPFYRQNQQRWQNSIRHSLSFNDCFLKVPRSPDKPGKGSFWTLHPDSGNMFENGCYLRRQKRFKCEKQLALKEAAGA
Oligonucleotide	E-score
ATTGTATC	0.283
AATCAATG	0.292
TAACTATA	0.357
TATTAGCA	0.254
ATATGTCG	0.302
GATATACA	0.346
AAACAAAC	0.314
ATGACATA	0.296
AATAATAC	0.277
TAATACTA	0.313
TCATTACA	0.285
ACGATAAC	0.299
ACACAACA	0.34
TACGTTGA	0.297
ATAACGGA	0.275
ATATAAAG	0.258
AATGGAAT	0.267
GTGTTAGA	0.255
TAAATACA	0.371

Excerpt of the above (study 3):
Oligonucleotide	RBNS enrichment (R)
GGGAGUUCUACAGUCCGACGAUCAGAACCUGGGCCUGGGGCCGGGACUCUGCAUGACUGGGAGCAAGUCACUUAAACCUCCUGUGCCUCGAUUUCCCCCUUCUACAAAGUGGGGCCAAUGAUUCUUGUGUGUCUGGAAUUCUCGGGUGCCAA	2.16
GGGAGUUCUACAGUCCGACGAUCCACUCUUACAGGCACUUUAUAUUUCUUGCUGUAACUACAGCAAUCACAUACAGUACAGACAACCUCAAAAAUCUGUUUAUAUUAGUGUAAAUAGAAAAAUGGUAGACCGCUGGAAUUCUCGGGUGCCAA	0.286
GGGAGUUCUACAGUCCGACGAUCUCAUGAAUGUGCUGGUGAACACUGUGACCAGGCUUUUGUAGAUGGCGAUGUGUUAUAGACGGUGCUCACUCCCAAGGGACAGCAAGUGAGCAGAGAUGUACUGCAAAGUCUGGAAUUCUCGGGUGCCAA	2.81
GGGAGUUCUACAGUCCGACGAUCCUUUUGGGGGUUAUUCUACCAACAAACAGUCCAUUGGAAAGAAAACAGUCCCUGGAAUUAACAGAUCAGAAUGUUCACACUGGUUAAUCUUUUUUUAACAAUGAGCAUGAUGGAAUUCUCGGGUGCCAA	0.398
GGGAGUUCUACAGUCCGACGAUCCACCCCUUUCCUUCCCUACCCAGCCAGGCUGGGCUGCCUCCUGCCCCCCUCGCUAGCCAUUUGGGGGUGGCAAGGGGGUGUGGUUGUUUCUCGUGGUUGUGUGUGUUUGUUGGAAUUCUCGGGUGCCAA	0.605
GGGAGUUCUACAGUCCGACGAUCGGGUUUUCAGAGUGAUUUUCAGGUUUAAUUUCACUGCCUUUCAUAAGGGUAAAGUUUCACAGCUGACAUUAGCCUGAGGAUUAGCACUAAAGAGCUGUGUUUUCAUAGCAUGGAAUUCUCGGGUGCCAA	0.598
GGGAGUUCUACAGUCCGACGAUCCUGCAUCUUGAUCCUCCUGUACGCCAUGUACAAGUACAGGAACAGGGACGAGGGGUCCUAUCAAGUGGACGAGACGCGGAACUACAUCAGCAACUCCGCCCAGAGCAACGUGGAAUUCUCGGGUGCCAA	0.578
